Results gathered from unrelated publications.
Every numbered part comes from another study and shows a few of its results, in no order.
Sequence of UniProt P35916 (whole entry, looked up): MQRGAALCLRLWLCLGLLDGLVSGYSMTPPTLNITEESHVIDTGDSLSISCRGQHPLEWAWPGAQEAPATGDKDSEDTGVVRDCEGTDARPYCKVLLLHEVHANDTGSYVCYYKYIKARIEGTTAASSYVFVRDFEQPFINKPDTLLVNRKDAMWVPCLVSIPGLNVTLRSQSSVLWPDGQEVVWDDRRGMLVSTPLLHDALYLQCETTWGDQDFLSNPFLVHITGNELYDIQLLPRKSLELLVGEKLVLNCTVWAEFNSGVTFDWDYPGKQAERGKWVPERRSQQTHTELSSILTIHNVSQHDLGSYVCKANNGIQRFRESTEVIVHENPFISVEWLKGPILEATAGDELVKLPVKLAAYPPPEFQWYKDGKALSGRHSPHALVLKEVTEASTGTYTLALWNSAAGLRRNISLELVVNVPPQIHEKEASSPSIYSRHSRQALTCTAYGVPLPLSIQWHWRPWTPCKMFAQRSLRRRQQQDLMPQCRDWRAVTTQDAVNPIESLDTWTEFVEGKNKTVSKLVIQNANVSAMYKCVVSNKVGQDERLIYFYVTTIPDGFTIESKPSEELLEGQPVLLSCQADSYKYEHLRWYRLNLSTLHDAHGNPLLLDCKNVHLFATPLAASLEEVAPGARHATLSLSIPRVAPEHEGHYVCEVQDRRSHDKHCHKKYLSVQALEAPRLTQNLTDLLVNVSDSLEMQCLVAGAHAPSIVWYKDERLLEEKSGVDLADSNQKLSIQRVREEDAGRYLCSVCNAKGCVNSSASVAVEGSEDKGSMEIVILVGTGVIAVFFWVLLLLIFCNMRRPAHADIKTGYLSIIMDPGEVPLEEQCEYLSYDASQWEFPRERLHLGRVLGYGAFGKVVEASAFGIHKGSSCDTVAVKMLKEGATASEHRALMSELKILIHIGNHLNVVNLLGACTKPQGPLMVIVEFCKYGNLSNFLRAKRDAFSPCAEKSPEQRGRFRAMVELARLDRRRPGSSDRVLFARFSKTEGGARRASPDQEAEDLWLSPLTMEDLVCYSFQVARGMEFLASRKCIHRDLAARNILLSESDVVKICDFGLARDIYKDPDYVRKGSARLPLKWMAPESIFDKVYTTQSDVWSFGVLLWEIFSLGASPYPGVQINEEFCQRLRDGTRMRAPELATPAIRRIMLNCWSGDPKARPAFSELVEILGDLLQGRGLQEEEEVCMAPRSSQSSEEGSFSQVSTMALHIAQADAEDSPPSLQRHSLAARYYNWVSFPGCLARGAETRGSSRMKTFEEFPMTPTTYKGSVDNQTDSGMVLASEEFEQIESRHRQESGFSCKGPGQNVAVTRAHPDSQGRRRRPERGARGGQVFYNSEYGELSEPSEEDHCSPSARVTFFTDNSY
Sequence of UniProt P27361 (whole entry, looked up): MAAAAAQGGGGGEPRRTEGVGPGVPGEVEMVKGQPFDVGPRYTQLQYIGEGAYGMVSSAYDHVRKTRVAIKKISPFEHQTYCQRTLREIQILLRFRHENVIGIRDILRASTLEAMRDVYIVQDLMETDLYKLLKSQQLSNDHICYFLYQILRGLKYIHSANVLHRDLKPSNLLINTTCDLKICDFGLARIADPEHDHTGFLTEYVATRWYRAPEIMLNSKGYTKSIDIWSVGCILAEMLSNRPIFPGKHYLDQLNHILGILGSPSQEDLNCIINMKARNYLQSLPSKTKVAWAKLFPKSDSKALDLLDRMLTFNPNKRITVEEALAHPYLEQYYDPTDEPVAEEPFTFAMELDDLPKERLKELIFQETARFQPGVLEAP
Sequence of UniProt O14757 (whole entry, looked up): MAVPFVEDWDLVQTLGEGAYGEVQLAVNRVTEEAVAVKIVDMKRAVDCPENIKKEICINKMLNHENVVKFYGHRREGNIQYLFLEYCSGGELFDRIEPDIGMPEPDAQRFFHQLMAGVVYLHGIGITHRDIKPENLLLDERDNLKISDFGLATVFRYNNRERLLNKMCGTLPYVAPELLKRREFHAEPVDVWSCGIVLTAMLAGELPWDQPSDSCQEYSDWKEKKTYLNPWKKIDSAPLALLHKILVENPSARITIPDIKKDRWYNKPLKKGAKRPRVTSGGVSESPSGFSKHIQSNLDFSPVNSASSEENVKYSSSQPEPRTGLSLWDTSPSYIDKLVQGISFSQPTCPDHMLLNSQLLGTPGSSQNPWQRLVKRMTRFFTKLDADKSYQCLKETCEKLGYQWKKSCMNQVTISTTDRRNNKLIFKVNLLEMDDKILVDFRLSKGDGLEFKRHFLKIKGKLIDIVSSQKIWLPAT
Sequence of UniProt P11309 (whole entry, looked up): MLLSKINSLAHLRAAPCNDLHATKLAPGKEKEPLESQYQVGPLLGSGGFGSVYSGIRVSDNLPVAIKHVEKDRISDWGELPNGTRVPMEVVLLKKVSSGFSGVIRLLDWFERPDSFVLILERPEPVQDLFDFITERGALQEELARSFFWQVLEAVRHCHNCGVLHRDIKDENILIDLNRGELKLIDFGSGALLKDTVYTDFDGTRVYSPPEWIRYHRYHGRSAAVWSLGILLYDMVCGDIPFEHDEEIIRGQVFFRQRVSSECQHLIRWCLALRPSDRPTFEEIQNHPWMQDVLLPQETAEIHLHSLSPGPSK

Study 1 — observed: enzyme activity; action: inhibitor; tested at: 77 µM; measurement: remaining activity
Target: DNA polymerase theta, ATPase domain (POLQ, Homo sapiens, UniProt O75417)
Sequence of UniProt O75417 (whole entry, unmodified, looked up): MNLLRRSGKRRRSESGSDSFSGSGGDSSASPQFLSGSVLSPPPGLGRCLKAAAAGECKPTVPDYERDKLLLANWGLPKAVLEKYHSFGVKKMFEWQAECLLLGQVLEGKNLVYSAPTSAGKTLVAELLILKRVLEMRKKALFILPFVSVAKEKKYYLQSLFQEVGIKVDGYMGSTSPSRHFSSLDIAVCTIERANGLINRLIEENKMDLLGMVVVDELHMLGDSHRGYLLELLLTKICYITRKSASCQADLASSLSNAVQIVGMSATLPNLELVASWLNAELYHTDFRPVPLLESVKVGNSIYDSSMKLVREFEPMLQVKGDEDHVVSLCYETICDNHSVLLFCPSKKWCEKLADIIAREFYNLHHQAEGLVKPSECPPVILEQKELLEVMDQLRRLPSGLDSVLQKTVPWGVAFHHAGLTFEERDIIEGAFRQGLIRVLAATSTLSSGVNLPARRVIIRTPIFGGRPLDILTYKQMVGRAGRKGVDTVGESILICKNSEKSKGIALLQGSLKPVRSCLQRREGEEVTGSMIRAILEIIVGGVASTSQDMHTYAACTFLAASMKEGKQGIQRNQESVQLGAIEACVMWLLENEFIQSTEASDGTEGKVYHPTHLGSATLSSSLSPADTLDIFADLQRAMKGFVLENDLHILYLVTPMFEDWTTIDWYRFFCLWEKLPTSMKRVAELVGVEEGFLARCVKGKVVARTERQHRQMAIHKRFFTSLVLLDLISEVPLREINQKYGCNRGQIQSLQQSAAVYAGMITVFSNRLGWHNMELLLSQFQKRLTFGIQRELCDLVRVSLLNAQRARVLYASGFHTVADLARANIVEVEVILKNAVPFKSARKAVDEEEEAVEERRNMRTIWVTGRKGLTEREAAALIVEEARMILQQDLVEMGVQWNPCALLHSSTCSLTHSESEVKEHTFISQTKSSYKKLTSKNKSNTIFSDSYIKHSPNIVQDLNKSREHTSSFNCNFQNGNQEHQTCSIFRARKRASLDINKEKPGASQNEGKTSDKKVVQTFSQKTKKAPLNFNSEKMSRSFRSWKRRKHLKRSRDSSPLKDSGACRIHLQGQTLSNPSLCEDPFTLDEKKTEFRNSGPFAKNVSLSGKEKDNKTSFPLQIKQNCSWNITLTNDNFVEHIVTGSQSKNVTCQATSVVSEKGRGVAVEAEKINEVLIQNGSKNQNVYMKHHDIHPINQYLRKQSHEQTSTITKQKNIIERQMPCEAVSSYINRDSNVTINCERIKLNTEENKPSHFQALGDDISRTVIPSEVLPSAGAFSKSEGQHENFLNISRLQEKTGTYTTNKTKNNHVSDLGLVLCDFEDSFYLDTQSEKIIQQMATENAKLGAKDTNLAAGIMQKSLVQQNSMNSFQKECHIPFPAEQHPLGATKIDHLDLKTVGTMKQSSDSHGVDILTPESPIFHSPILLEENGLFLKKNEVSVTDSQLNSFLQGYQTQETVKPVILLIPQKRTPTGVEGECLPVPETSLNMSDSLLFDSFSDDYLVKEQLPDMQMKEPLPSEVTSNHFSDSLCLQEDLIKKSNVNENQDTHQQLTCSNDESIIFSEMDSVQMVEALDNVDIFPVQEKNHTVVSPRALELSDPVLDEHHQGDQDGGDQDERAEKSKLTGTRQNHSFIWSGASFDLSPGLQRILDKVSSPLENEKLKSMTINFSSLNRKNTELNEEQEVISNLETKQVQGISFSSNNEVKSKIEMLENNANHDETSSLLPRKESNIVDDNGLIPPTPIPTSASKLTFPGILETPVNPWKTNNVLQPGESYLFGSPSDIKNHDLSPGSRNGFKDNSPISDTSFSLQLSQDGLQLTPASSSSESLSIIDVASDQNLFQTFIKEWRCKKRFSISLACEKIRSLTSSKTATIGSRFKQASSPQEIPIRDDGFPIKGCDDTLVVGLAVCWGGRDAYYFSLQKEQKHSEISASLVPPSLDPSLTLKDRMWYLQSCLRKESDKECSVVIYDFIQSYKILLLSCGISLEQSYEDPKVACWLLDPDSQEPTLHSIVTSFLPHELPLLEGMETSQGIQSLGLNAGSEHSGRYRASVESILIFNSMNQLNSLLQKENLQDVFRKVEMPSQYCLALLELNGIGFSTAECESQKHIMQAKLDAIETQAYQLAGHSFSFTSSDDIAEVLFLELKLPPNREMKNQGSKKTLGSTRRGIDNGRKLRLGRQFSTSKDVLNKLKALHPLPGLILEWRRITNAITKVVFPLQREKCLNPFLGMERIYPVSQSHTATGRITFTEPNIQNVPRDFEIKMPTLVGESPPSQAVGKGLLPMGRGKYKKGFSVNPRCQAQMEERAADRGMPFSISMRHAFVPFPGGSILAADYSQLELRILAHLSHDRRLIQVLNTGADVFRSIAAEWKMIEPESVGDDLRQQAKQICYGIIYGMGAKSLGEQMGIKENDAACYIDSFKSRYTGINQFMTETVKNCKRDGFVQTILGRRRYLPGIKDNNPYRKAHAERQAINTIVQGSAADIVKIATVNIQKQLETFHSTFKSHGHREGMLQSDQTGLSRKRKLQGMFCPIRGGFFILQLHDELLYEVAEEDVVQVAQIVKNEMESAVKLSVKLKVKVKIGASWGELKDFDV
SMILES = NCC(=O)Nc1ccc(-n2nc(C(F)(F)F)cc2-c2ccc3c(ccc4ccccc43)c2)cc1; value = 92.6%
SMILES = COc1ccc(-c2nc3cc(C4=NNC(=O)CC4C)ccc3[nH]2)cc1 (centres unmarked); value = 98.2%
SMILES = CC(C)(C)NCC(O)c1ccc(O)c(CO)c1 (centres unmarked); value = 99.8%
SMILES = CNC(=C[N+](=O)[O-])NCCSCc1ccc(CN(C)C)o1; value = 101%
SMILES = Cc1c(C(N)=O)cc([N+](=O)[O-])cc1[N+](=O)[O-]; value = 100%
SMILES = COc1ccc(C[C@@H](C)NC[C@H](O)c2ccc(O)c(NC=O)c2)cc1 (racemic); value = 101%
SMILES = CC[C@H](Nc1ncnc2[nH]cnc12)c1nc2cccc(F)c2c(=O)n1-c1ccccc1; value = 95.5%
SMILES = CCN(CC)C(=O)[C@]1(c2ccccc2)C[C@@H]1CN (racemic); value = 96.1%
SMILES = C[N+](C)(C)CCCCCC[N+](C)(C)C; value = 101%
SMILES = NC1(Cc2ccc(Cl)cc2)CCN(c2ncnc3[nH]ccc23)CC1; value = 97.9%
SMILES = COc1cc([C@@H]2c3cc4c(cc3[C@@H](O[C@@H]3O[C@@H]5CO[C@@H](C)O[C@H]5[C@H](O)[C@H]3O)[C@H]3COC(=O)[C@H]23)OCO4)cc(OC)c1O; value = 112%
SMILES = O=c1c2ccccc2oc2ccccc12; value = 102%
SMILES = O=C(CCCN1CCC(O)(c2ccc(Cl)cc2)CC1)c1ccc(F)cc1; value = 103%
SMILES = COC(=O)C1=C(C)NC(C)=C(C(=O)OCCN(C)Cc2ccccc2)C1c1cccc([N+](=O)[O-])c1 (centres unmarked); value = 100%
SMILES = COc1ccc(CCN2CCC(Nc3nc4ccccc4n3Cc3ccc(F)cc3)CC2)cc1; value = 98.6%

Study 2 — observed: enzyme activity; action: inhibitor; tested at: 0.5 µM; relative to: control; measurement: remaining activity
Target: cGMP-dependent protein kinase 1 (PRKG1, Homo sapiens, UniProt Q13976)
Residues (Q13976 1-671): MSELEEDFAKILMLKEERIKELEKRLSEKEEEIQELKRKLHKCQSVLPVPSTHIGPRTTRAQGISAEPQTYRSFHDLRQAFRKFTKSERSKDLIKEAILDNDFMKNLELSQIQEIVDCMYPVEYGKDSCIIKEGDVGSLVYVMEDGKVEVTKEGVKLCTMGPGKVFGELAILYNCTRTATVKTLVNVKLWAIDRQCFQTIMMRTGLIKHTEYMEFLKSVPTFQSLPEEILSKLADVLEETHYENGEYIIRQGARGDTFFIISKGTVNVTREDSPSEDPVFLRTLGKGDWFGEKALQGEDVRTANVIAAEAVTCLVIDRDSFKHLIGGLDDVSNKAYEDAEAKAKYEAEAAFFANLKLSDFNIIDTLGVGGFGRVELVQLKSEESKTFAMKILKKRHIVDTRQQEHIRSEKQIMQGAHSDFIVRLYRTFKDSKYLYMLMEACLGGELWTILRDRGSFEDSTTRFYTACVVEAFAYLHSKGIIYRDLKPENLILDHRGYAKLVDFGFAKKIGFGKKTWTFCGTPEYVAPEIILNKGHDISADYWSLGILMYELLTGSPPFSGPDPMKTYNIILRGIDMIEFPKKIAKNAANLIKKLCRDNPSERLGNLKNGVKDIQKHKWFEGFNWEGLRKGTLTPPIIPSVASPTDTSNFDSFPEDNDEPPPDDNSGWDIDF
Compound = Ic1cccc(CSc2nnc(-c3ccncc3)o2)c1; value = 92.1%
Compound = CCN(CC)CCNC(=O)c1c(C)[nH]c(/C=C2\C(=O)Nc3ccc(F)cc32)c1C; value = 65.3%
Compound = O=C1c2ccccc2-c2n[nH]c3cccc1c23; value = 87.8%
Compound = O=c1cc(-c2cccc3c2Sc2ccccc2S3)oc(N2CCOCC2)c1; value = 103%
Compound = c1ccc(-c2cnc(Nc3ccc(OCCN4CCCC4)cc3)s2)cc1; value = 100%
Compound = c1ccc(-c2[nH]ncc2-c2ccnc3ccccc23)nc1; value = 92.7%
Compound = N#Cc1c(NC(=O)c2cccc3ccccc23)sc2c1CCCC2; value = 101%
Compound = CN([C@@H](Cc1ccc(OS(=O)(=O)c2cccc3cnccc23)cc1)C(=O)N1CCN(c2ccccc2)CC1)S(=O)(=O)c1cccc2cnccc12; value = 93.6%
Compound = CCN(CC)CCNC(=O)c1c(C)[nH]c(/C=C2\C(=O)Nc3ccc(Cl)cc32)c1C; value = 64.2%
Compound = COc1cc2ncnc(Nc3ccc(O)c(Br)c3)c2cc1OC; value = 87.1%
Compound = O=C(NC(NC(=S)Nc1ccc(F)c([N+](=O)[O-])c1)C(Cl)(Cl)Cl)C(c1ccccc1)c1ccccc1 (centres unmarked); value = 100%
Compound = Cc1cc2ncc(-c3ccccc3)nc2cc1C; value = 86.2%
Compound = O=C(Nc1cccc(Nc2nccc(Nc3cccc(C(F)(F)F)c3)n2)c1)C1CC1; value = 99.3%
Compound = CN(C)C[C@H]1CCn2c(c(C3=C(c4cn(C)c5ccccc45)C(=O)NC3=O)c3ccccc32)C1; value = 81%
Compound = COc1cc2ncnc(Nc3cccc(Cl)c3)c2cc1OC; value = 93.8%
Compound = O=C1C(Cl)=C(N2C(=O)CCC2=O)C(=O)c2ccccc21; value = 97.8%
Compound = CCOc1nc(NC(=O)Cc2cc(OC)ccc2OC)cc(N)c1C#N; value = 101%
Compound = N#C/C(=C\c1ccc(O)c(O)c1)C(=O)NCc1ccccc1; value = 89.2%
Compound = C[C@@H]1CCN(C(=O)CC#N)C[C@@H]1N(C)c1ncnc2[nH]ccc12; value = 82%
Compound = Cc1cn(-c2cc(NC(=O)c3ccc(C)c(Nc4nccc(-c5cccnc5)n4)c3)cc(C(F)(F)F)c2)cn1; value = 90.3%
Compound = Cc1nc2cc3nc(-c4cccs4)cnc3cc2n1C; value = 99.7%
Compound = Cn1nc2c3c(cccc31)C(=O)c1ccccc1-2; value = 96%
Compound = COc1cc2c(cc1OC)-c1[nH]nc(Nc3cccc(F)c3)c1C2; value = 95.2%
Compound = CCN(CC)C(=O)c1ccc(Nc2nc(OCC3CCCCC3)c3[nH]cnc3n2)cc1; value = 89.8%
Compound = O=C1Nc2ccc(Cl)cc2C1=Cc1cc(Cl)c(O)c(Cl)c1; value = 96.8%

Study 3 — technique: competition with immobilised ligand; tested at: 1 µM; measurement: remaining binding
SMILES: CN(C)C(=O)Cn1cc(-c2nc(C3(c4ccc(-c5cnc(N)nc5)cc4)CC3)no2)cn1
target = BUB1 (Homo sapiens, UniProt O43683); assay = cell-free assay; value = 75%
target = EPHB6 (Homo sapiens, UniProt O15197); assay = cell-free assay; value = 93%
target = STK24 (Homo sapiens, UniProt Q9Y6E0); assay = cell-free assay; value = 100%
target = GSK3A (Homo sapiens, UniProt P49840); assay = cell-free assay; value = 100%
target = EGFR (Homo sapiens, UniProt P00533, G719C); assay = cell-free assay; value = 100%
target = DAPK1 (Homo sapiens, UniProt P53355); assay = cell-free assay; value = 100%
target = CSNK1G1 (Homo sapiens, UniProt Q9HCP0); assay = cell-free assay; value = 90%
target = BMPR1A (Homo sapiens, UniProt P36894); assay = binding; value = 87%
target = CHEK1 (Homo sapiens, UniProt O14757); assay = cell-free assay; value = 100%
target = PIM1 (Homo sapiens, UniProt P11309); assay = cell-free assay; value = 100%
target = FLT4 (Homo sapiens, UniProt P35916); assay = cell-free assay; value = 95%
target = PTK6 (Homo sapiens, UniProt Q13882); assay = cell-free assay; value = 100%
target = PI4KB (Homo sapiens, UniProt Q9UBF8); assay = cell-free assay; value = 70%
target = PRPF4B (Homo sapiens, UniProt Q13523); assay = cell-free assay; value = 87%
target = PIK3CA (Homo sapiens, UniProt P42336, E545K); assay = cell-free assay; value = 85%
target = Tyrosine-protein kinase ABL1, non-phosphorylated (ABL1, Homo sapiens, UniProt P00519, T315I); assay = cell-free assay; value = 82%
target = FLT3 (Homo sapiens, UniProt P36888, N841I); assay = cell-free assay; value = 100%
target = ANKK1 (Homo sapiens, UniProt Q8NFD2); assay = cell-free assay; value = 81%
target = ALK (Homo sapiens, UniProt Q9UM73); assay = cell-free assay; value = 77%
target = PTK2B (Homo sapiens, UniProt Q14289); assay = cell-free assay; value = 90%
target = LIM domain kinase 1 (LIMK1, Homo sapiens, UniProt P53667); assay = cell-free assay; value = 100%
target = CDK5 (Homo sapiens, UniProt Q00535); assay = cell-free assay; value = 100%
target = TYRO3 (Homo sapiens, UniProt Q06418); assay = cell-free assay; value = 83%
target = PKMYT1 (Homo sapiens, UniProt Q99640); assay = cell-free assay; value = 90%
target = MAPK3 (Homo sapiens, UniProt P27361); assay = cell-free assay; value = 79%

Study 4 — species: mouse; matrix: microsomes or S9; tested at: 2 µM; time: 0.5 h; measurement: remaining compound
SMILES = Cc1cc(O)cc(NS(=O)(=O)c2cnn3c2OCC(C)(C)C3)c1; value = 87.7%
SMILES = CC(C)n1nc(-c2ccc3ncccc3c2)c2cnc3cc(F)ccc3c21; value = 25.9%
SMILES = COc1ccc2c(c1)C(=O)CC(c1ccccc1)O2 (centres unmarked); value = 27.6%
SMILES = CC1=C(C#N)C(c2ccc(C(C)C)cc2)C2=C(O)c3ccccc3C2=N1 (centres unmarked); value = 2.44%
SMILES = Cn1c(CN2CCN(C(=O)c3ccccc3)CC2)nc2cc(NC(=O)c3ccccc3[N+](=O)[O-])ccc21; value = 74.7%
SMILES = COC(=O)c1sc2ncn(CC(C)=O)c(=O)c2c1C; value = 0.222%
SMILES = COc1cc(Nc2ncc(-c3cnn(C)c3)c(Nc3ccc4c(c3)CNCC4)n2)cc(OC)c1; value = 48.4%
SMILES = Cc1n[nH]c(C)c1CNC(=O)C1CCN(C(=O)c2ncn3c2COC(c2ccc(F)cc2)C3)CC1 (centres unmarked); value = 68%
SMILES = O=C(NCc1ccccc1)c1cnc2ccc(S(=O)(=O)Nc3ccc4c(c3)OCCO4)cc2c1O; value = 0.0532%
SMILES = N=C(N)NC(=O)c1cc2c(-c3cccc(Cl)c3)cccc2s1; value = 47.2%
SMILES = COc1cccc([C@@H]2CN(C(=O)C3CC(=O)Nc4ccccc43)C[C@]23CCCCC(=O)N3)c1 (some centres unmarked); value = 23.9%
SMILES = CC(C)(C)OC(=O)NCCNC(=O)Cc1cc(=O)oc2cc(O)ccc12; value = 78%
SMILES = c1ccc(C2CCC3(CC2)Oc2ccccc2C2CC(c4ccncc4)=NN23)cc1 (centres unmarked); value = 65.6%
SMILES = Cc1ccc(C(=O)COC(=O)c2ccc(Cn3ccccc3=O)o2)s1; value = 3%
SMILES = CC(C)c1cc(C(C)C)c(S(=O)(=O)NCCCO)c(C(C)C)c1; value = 0.536%

For quick reference, copied from above (study 2):
Compound = CCN(CC)CCNC(=O)c1c(C)[nH]c(/C=C2\C(=O)Nc3ccc(F)cc32)c1C; value = 65.3%
Compound = O=C1c2ccccc2-c2n[nH]c3cccc1c23; value = 87.8%
Compound = O=c1cc(-c2cccc3c2Sc2ccccc2S3)oc(N2CCOCC2)c1; value = 103%
Compound = c1ccc(-c2cnc(Nc3ccc(OCCN4CCCC4)cc3)s2)cc1; value = 100%
Compound = c1ccc(-c2[nH]ncc2-c2ccnc3ccccc23)nc1; value = 92.7%
Compound = N#Cc1c(NC(=O)c2cccc3ccccc23)sc2c1CCCC2; value = 101%
Compound = CN([C@@H](Cc1ccc(OS(=O)(=O)c2cccc3cnccc23)cc1)C(=O)N1CCN(c2ccccc2)CC1)S(=O)(=O)c1cccc2cnccc12; value = 93.6%
Compound = CCN(CC)CCNC(=O)c1c(C)[nH]c(/C=C2\C(=O)Nc3ccc(Cl)cc32)c1C; value = 64.2%
Compound = COc1cc2ncnc(Nc3ccc(O)c(Br)c3)c2cc1OC; value = 87.1%
